Results gathered from unrelated publications.
Each numbered part is a random draw from the data of one study; scales do not carry over between parts.

Sample 1 — technique: protein binding microarray; form: double-stranded DNA, one strand shown; medium: in vitro; concentration: not given; reference: not given; reading: higher = stronger binding
Target: Histone acetyltransferase KAT6A, both winged helices, GST fusion (KAT6A, Homo sapiens, UniProt Q92794, residues 1-181)
Setting: 8-mer, flanks averaged, mean of 2 arrays, mostly near background
Target sequence (chain): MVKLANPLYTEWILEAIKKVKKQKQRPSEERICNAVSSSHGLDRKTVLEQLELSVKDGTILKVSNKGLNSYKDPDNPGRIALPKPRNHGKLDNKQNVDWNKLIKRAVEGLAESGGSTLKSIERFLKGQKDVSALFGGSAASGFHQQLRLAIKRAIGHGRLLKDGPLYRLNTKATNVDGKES
For `AACGGCCC`, the E-score was 0.138.
For `ACACGCCG`, the E-score was 0.281.
`ACTCAGCA` gave an E-score of -0.106.
For `GTCTGTTA`, the E-score was -0.0249.

Sample 2 — technique: protein-binding microarray; form: double-stranded DNA, one strand shown; medium: in vitro; concentration: 250 nM; setting: 60-bp whole probe; together with: salmon DNA 0.4 mg/ml; reference: random background probes; reading: higher = stronger binding
Target: Interferon regulatory factor 5, full length, phosphomimetic (IRF5, Homo sapiens, UniProt Q13568-2, residues 1-514, K96S/S451D/S453D/S456D/S462D)
With `GCCTAGCACGACGATCTCATTTTCGAGACGTGCTAGGTCTTGATTCGCTTGACGCTGCTG` the log fluorescence was 2.01 z-score.
For `GCCTAGCACGACGGTATTGGGACTGGGGACGTGCTAGTCTTGATTCGCTTGACGCTGCTG`, the log fluorescence was -0.305 z-score.
`GCCTAGCACTCACTTTCCACTTGTCTTTTCGTGCTAGTCTTGATTCGCTTGACGCTGCTG` gave a log fluorescence of 2.52 z-score.

Sample 3 — technique: RNA Bind-n-Seq; form: RNA; medium: in vitro; concentration: 200 nM; setting: whole 134-nt RNA, ends assumed; together with: 150 mM LiCl; reference: input library; reading: higher = stronger binding; library: 7-deaza-guanosine replaces G
Target: Fragile X messenger ribonucleoprotein 1, C-terminal low-complexity region (Fmr1, Mus musculus, UniProt P35922)
For `GGGAGUUCUACAGUCCGACGAUCCUCAAGUCCUGUGCUACACAUCGUAUGUACCGAAUCGGAAGGGAAGGAAGGGGAAAGUAUUAUGUUACGCCGUUCGGAUCUGCACUUCCAUGGAAUUCUCGGGUGUCAAGG`, the log2 enrichment was -0.112.
`GGGAGUUCUACAGUCCGACGAUCUGGGAGGUGGAUUUUUUUUAUUUUUUUAGCUCAUUUCCAGGGGUGGGAAUUUUUUUUUAAUAUGUGUCAUGAAUAAAGUUGUUUUUGAAAUGGAAUUCUCGGGUGUCAAGG` gave a log2 enrichment of 0.65.
With `GGGAGUUCUACAGUCCGACGAUCACCAUGCAGGUGGGCAUCUUUGGGAAGUGGGGCAAGGGGGGGAUAGGGAGGGGGGUAACACUUUGAGAACAGGUGGUCCCAGGUCGUUUCUGGAAUUCUCGGGUGUCAAGG` the log2 enrichment was 1.33.
With `GGGAGUUCUACAGUCCGACGAUCCCUGUGCUACACAUCGUAUGUACCGAAUCGGGGUUUUUUUGGGGAAAAAAAGGGGAGGGGAAAGUAUUAUGUUACGCCGUUCGGAUCUGCUGGAAUUCUCGGGUGUCAAGG` the log2 enrichment was -1.63.

Further values, each from its own experiment
`PhoQ, residues 284 288 289 292 302 303 SLANKL` has a fold induction of 20.4 (PhoP, residues 12 14 15 18 19 TTLRV (Escherichia coli, UniProt P23836); Sort-seq, item: YFP reporter; E. coli; PhoQ-PhoP variant library, together with: 10 µM Mg2+; reference: high Mg2+ state, higher = stronger signaling).

Some of these lines once more (further values, each from its own experiment):
`PhoQ, residues 284 288 289 292 302 303 SLANKL` has a fold induction of 20.4 (PhoP, residues 12 14 15 18 19 TTLRV (Escherichia coli, UniProt P23836); Sort-seq, item: YFP reporter; E. coli; PhoQ-PhoP variant library, together with: 10 µM Mg2+; reference: high Mg2+ state, higher = stronger signaling).
